Results pooled from the literature.
Lines come from different studies, so protocols differ. “And” joins repeats or separate records; there may be more than shown. ± marks the error that the study gave. In brackets after ≈: the same amount, converted by molar mass.

CCN(CC)CC(=O)Nc1cccc(-n2cc(-c3ccc4ccc(-c5cn(-c6cccc(NC(=O)CN(CC)CC)c6)nn5)cc4c3)nn2)c1  fold regulation (RCC4; PCR angiogenesis array, item: IFNA1; 5 x IC50, 6 h, normoxia; reference: untreated): -2.01
COC1OC(C)C(O)C(OC2OC(C)C(O)C(OC3OC(C)C(O)C(OC4OC(C)C(O)C(OC5OC(C)C(O)C(OC6OC(C)C(O)C(OC7OC(C)C(O)C(OC8OC(C)C(O)C(OC9OC(C)C(O)C(OC%10OC(C)C(O)C(OC%11OC(C)C(O)C(OS(=O)(=O)O)C%11OS(=O)(=O)O)C%10OS(=O)(=O)O)C9OS(=O)(=O)O)C8OS(=O)(=O)O)C7OS(=O)(=O)O)C6OS(=O)(=O)O)C5OS(=O)(=O)O)C4OS(=O)(=O)O)C3OS(=O)(=O)O)C2OS(=O)(=O)O)C1OS(=O)(=O)O (stereo not drawn)  thrombin time (human plasma; 128 µg/mL): 9.2 s
CNS(=O)(=O)Nc1nccc(Cc2c(C)c3ccc(Oc4ncccc4F)cc3oc2=O)c1F  IC50 (SW1573; cell viability; 7 days): > 1 µM
COC1OC(C)C(OC2OC(C)C(OS(=O)(=O)O)C(OC3OC(C)C(OS(=O)(=O)O)C(OS(=O)(=O)O)C3O)C2O)C(OS(=O)(=O)O)C1O (stereo not drawn)  thrombin time prolongation (human plasma; 128 µg/mL; reference: control): 0.9 fold
C=CC(=O)Nc1cccc(Cn2ncc3cnc(Nc4cnn(CCOC)c4)nc32)c1  binding (human TEC; KINOMEscan; 100 nM; reference: control): 4.1%
Cc1ncsc1-c1ccc(C(C)NC(=O)C2CC(O)CN2C(=O)C(NC(=O)CCCCCCCCCCN2CCCC(Nc3ncc(Cl)c(Nc4ccccc4S(=O)(=O)C(C)C)n3)C2)C(C)(C)C)cc1 (stereo not drawn)  log2 fold change (22Rv1; RNA-seq, item: WBP1L mRNA; concentration not given; reference: DMSO): -1.34
C=C(NC(=O)c1csc(-c2nc3c(cc2O)-c2nc(cs2)C(=O)NC(C(C)O)C(=O)NC(=C(C)OC)c2nc(cs2)C(=O)NC2c4nc(cs4)C(=O)NC(COC(=O)c4c5c6c(cccc6n4O)COC(=O)C(OC4CC(C)(O)C(N(C)C)C(C)O4)C2OC5)c2nc-3cs2)n1)C(N)=O (stereo not drawn)  MIC50 (Enterococcus faecium; agar dilution; vancomycin-intermediate, 25 isolates): 0.0156 µg/mL (≈ 0.0109 µM)
Cc1cccc2c1N(C(=O)n1ccnn1)CC2  hypocotyl length (Arabidopsis thaliana; wild type; 100 µM, seedlings): 5.69 mm
Nc1ncc(-c2cc(-c3cnn(CC(F)(F)F)c3)ncc2F)nc1C(=O)NC1CNCC(F)C1 (stereo not drawn)  remaining binding (PAK1; KINOMEscan; 1 µM; reference: DMSO control): 85%
CC(C)c1ccc(N(C)c2ccc3c(c2)OCC[C@H]3CNc2cnccc2C(=O)O)cc1  IC50 (Calu-3; cell viability, CellTiter-Glo; 7 days): ≥ 10 µM
COC1OC(C)C(OC2OC(C)C(O)C(OS(=O)(=O)O)C2OS(=O)(=O)O)C(OS(=O)(=O)O)C1OS(=O)(=O)O (stereo not drawn)  thrombin time prolongation (human plasma; 128 µg/mL; reference: control): 0.9 fold
COc1cc2c(NC3CCN(C(C)C)CC3)cc(N3CCOCC3)nc2cc1OCCCN1CCCC1  normalised protein abundance (TMT quantitative proteomics, item: GMFB; 5xFAD mice, hippocampus; dose not given): 0.0797 and 0.0436 and 0.0452 and 0.0221 and 0.0736 and 0.0521 and 0.034 and 0.0233
CN1CCCNC(=O)c2cccc(c2)C(=O)NCCCN(C)CCCNc2cccc3c2C(=O)c2cccc(c2C3=O)NCCC1  log2 fold change (SAS; RNA-Seq, item: RAB28 mRNA; 1 µM, 6 h; reference: untreated cells): -1.14
COc1ccccc1-c1ccncc1C(=O)Nc1nnc(OCc2ccc(Cl)cc2)s1  colony survival (PEO1 BRCA2-mutant ovarian cancer; 1.00 µM, with: olaparib 0.25 µM): 0%
COC1OC(C)C(O)C(OC2OC(C)C(O)C(OC3OC(C)C(O)C(OS(=O)(=O)O)C3OS(=O)(=O)O)C2OS(=O)(=O)O)C1OS(=O)(=O)O (stereo not drawn)  thrombin time (human plasma; 128 µg/mL): 9.9 ± 0.6 s
COC1CN([C@H]2CC[C@H]([C@@]3(C)Oc4c(Cl)cc(C(=O)NCc5c(SC)cc(C)[nH]c5=O)c(C)c4O3)CC2)C1  log2 fold change (RNA-seq, item: FBXO2 mouse homolog; mouse, HT-1376 xenograft, whole blood; dose not given; reference: vehicle): 2.65
COc1cc(O)ccc1CCC(c1ccc(O)cc1)c1cc2c(c(C)c1O)OC(c1ccc(O)cc1)CC2 (mixture of isomers)  5-HETE level (human blood; 0.3 µM, with: A23187): 3880 ± 1760 pg/mL
COC1OC(C)C(OS(=O)(=O)O)C(OC2OC(C)C(OS(=O)(=O)O)C(OC3OC(C)C(OS(=O)(=O)O)C(OC4OC(C)C(OS(=O)(=O)O)C(OC5OC(C)C(OS(=O)(=O)O)C(OC6OC(C)C(OS(=O)(=O)O)C(OS(=O)(=O)O)C6O)C5O)C4O)C3O)C2O)C1O (stereo not drawn)  thrombin time (human plasma; 128 µg/mL): 10.4 ± 0.5 s
c1ccc(-c2n[nH]cc2-c2ccnc3ccccc23)nc1  log2 fold change (SKY1 (Candida albicans); kinase binding, MIB/MS competition; Candida albicans lysate; 10 µM; reference: DMSO): -0.24
COC1OC(C)C(OC2OC(C)C(O)C(OC3OC(C)C(OC4OC(C)C(O)C(OC5OC(C)C(OC6OC(C)C(O)C(OC7OC(C)C(O)C(OS(=O)(=O)O)C7OS(=O)(=O)O)C6OS(=O)(=O)O)C(OS(=O)(=O)O)C5OS(=O)(=O)O)C4OS(=O)(=O)O)C(OS(=O)(=O)O)C3OS(=O)(=O)O)C2OS(=O)(=O)O)C(OS(=O)(=O)O)C1OS(=O)(=O)O (stereo not drawn)  thrombin time prolongation (human plasma; 128 µg/mL; reference: control): 1 fold
C=CC(=O)N1[C@@H](c2ccc3c(c2)OCO3)c2[nH]c3ccccc3c2C[C@H]1C(=O)N1CCN(C)CC1  log2 fold change (CCNE1 WT-3xFLAG:CDK2 complex; co-IP TMT proteomics, item: MNAT1; HEK-293T; 20 µM, 6 h; reference: DMSO): 0.0426

A few entries again:
C=C(NC(=O)c1csc(-c2nc3c(cc2O)-c2nc(cs2)C(=O)NC(C(C)O)C(=O)NC(=C(C)OC)c2nc(cs2)C(=O)NC2c4nc(cs4)C(=O)NC(COC(=O)c4c5c6c(cccc6n4O)COC(=O)C(OC4CC(C)(O)C(N(C)C)C(C)O4)C2OC5)c2nc-3cs2)n1)C(N)=O (stereo not drawn)  MIC50 (Enterococcus faecium; agar dilution; vancomycin-intermediate, 25 isolates): 0.0156 µg/mL (≈ 0.0109 µM)
Cc1cccc2c1N(C(=O)n1ccnn1)CC2  hypocotyl length (Arabidopsis thaliana; wild type; 100 µM, seedlings): 5.69 mm
Nc1ncc(-c2cc(-c3cnn(CC(F)(F)F)c3)ncc2F)nc1C(=O)NC1CNCC(F)C1 (stereo not drawn)  remaining binding (PAK1; KINOMEscan; 1 µM; reference: DMSO control): 85%
